Measurements from different studies.
Protocols differ between the studies behind these lines. Values joined by “and” are separate records of one study, mostly repeats; a detail may differ. ± gives the spread as reported.
Voltage-dependent P/Q-type calcium channel subunit alpha-1A: Voltage-dependent P/Q-type calcium channel subunit alpha-1A (Homo sapiens, UniProt O00555)
ADRA2C: Alpha-2C adrenergic receptor (ADRA2C, Homo sapiens, UniProt P18825)
UCHL1: Ubiquitin carboxyl-terminal hydrolase isozyme L1 (UCHL1, Homo sapiens, UniProt P09936)
TOP2A: DNA topoisomerase 2-alpha (TOP2A, Homo sapiens, UniProt P11388)
T1: G-quadruplex DNA (Homo sapiens); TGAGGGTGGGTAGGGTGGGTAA
T2: G-quadruplex DNA MYC22 promoter G14T/G23T (Homo sapiens); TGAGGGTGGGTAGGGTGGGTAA
T3: G-quadruplex DNA human telomere fragment (Homo sapiens); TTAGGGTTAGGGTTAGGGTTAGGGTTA
T4: ssDNA, aptamer; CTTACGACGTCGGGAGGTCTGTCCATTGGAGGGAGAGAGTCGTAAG

SMILES	target	assay	system	conditions	how to read	quantity	result
Cc1cn(C2CCN(Cc3cccc(Oc4cccc(OC(F)(F)F)c4)c3)CC2)c(=O)[nH]c1=O	Thymidylate kinase (DTYMK, Homo sapiens, UniProt P23919)	enzyme activity, inhibitor	–	no inhibition observed	–	highest concentration tested	> 40 µM
Cc1nc(CSc2nc(SCc3ccc(C(C)C)cc3)nc(=O)[nH]2)cs1	TOP2B (Homo sapiens, UniProt Q02880)	decatenation	–	15.6 µM, replicate 1	–	decatenated DNA	81.5%
CCCN1C[C@H](CSC)C[C@@H]2c3cccc4[nH]cc(c34)C[C@H]21	Voltage-dependent P/Q-type calcium channel subunit alpha-1A	ion current, antagonist, automated patch clamp	–	–	–	IC30	25000 nM
Cc1cc(Oc2ncccc2CN2CCN(c3ccccc3C#N)CC2)ccc1-c1c(C)c(=O)[nH]c(=O)n1C	ADRA2C	binding, radioligand binding	–	added: [3H]rauwolscine	baseline: Ki alpha2B over Ki alpha2C	selectivity ratio	4
COc1ccc(NC(=O)C(C#N)=Cc2cccc(O)c2)cc1OC	UCHL1	covalent, intact protein LC-MS	–	12.5 µM	–	labelling	30.7%
C=CC(=O)N1CCC[C@@H](n2nc(-c3ccc(Oc4ccccc4)cc3)c3c(N)ncnc32)C1	TEC (Homo sapiens, UniProt P42680)	–	–	0.1 µM	–	remaining activity	134%
CC/C=C(\C)C=O	Uncharacterized protein PH0856 (Pyrococcus horikoshii, UniProt O58586)	substrate	–	pH 7, 30 °C, aerobic, added: NADH	–	conversion	20%
O=C(O)c1ccc([N+](=O)[O-])cc1	BEST1 (Homo sapiens, UniProt O76090)	whole-cell patch clamp	HEK293 transiently expressing channel	concentration not given, membrane potential 40 mV	–	current density	21.8 pA/pF and 48.1 pA/pF and 21.4 pA/pF and 63 pA/pF and 38.7 pA/pF and 42.6 pA/pF
N[C@@H](CCC(=O)O)C(=O)O	glc-2 (Caenorhabditis elegans, UniProt Q17328, R351A/R352A/R353A/T283S)	two-electrode voltage clamp	Xenopus laevis oocytes	–	–	median current	1 µA
Cc1cc(Oc2ncccc2CN2CCN(c3ccc(F)c(F)c3)CC2)ccc1-c1c(C)c(=O)[nH]c(=O)n1C	ADRA2C	binding, radioligand binding	–	added: [3H]rauwolscine	baseline: Ki alpha2B over Ki alpha2C	selectivity ratio	3
CC(=O)Nc1ccc(NC(=O)C(C#N)=Cc2cc(F)ccc2F)cc1	UCHL1	covalent, intact protein LC-MS	–	12.5 µM	–	labelling	37.4%
CC(=O)N[C@@H](Cc1c[nH]cn1)C(=O)N[C@@H](CC(=O)O)C(=O)N1CCC[C@H]1C(=O)N1CCC[C@H]1C(=O)N[C@@H](CC(C)C)C(=O)N[C@@H](Cc1c[nH]cn1)C(=O)N[C@@H](CO)C(=O)N[C@H](C(=O)N[C@@H](C)C(N)=O)[C@@H](C)OP(=O)(O)O	PLK1 (Homo sapiens, UniProt P53350)	polo-box domain binding, isothermal titration calorimetry	–	concentration not given, 25 °C	–	binding enthalpy	-14.8 ± 0.09 kcal/mol
CCN1CCC[C@H]1CNC(=O)c1c(O)c(Cl)cc(Cl)c1OC	G-protein coupled receptor family C group 6 member A (GPRC6A, Homo sapiens, UniProt Q5T6X5)	β-arrestin recruitment, TANGO luminescence, measured: GPRC6A	–	concentration not given	baseline: basal luminescence	log2 fold change	-0.2
C[C@H](CCC(C)(C)O)[C@H]1CC[C@H]2[C@@H]3CC=C4C[C@@](C)(O)CC[C@]4(C)[C@H]3CC[C@]12C	Glutamate NMDA receptor; GRIN1/GRIN2A (Homo sapiens, UniProt Q05586+Q12879)	ion current, positive modulator, automated patch clamp	HEK293 (stable line)	added: glutamate 0.8 µM and glycine	baseline: current without compound	Emax	201%
O=[N+]([O-])c1cc(C(F)(F)F)ccc1NCc1ccco1	Endothelial PAS domain-containing protein 1, PAS-B domain (EPAS1, Homo sapiens, UniProt Q99814, N288Q)	binding, ITC, reverse mode	–	–	–	ΔG	-8.05 ± 0.11 kcal/mol
CCNC(=O)/C=C/c1cccc(Br)c1	SLC6A19 (Homo sapiens, UniProt Q695T7)	inhibitor, FLIPR membrane potential	CHO-BC cells	0.1 µM, unit not given	baseline: no inhibitor	remaining transport activity	0.924
c1cc(-c2nc(NCCCN3CCCCC3)c3ccccc3n2)nc(-c2nc(NCCCN3CCCCC3)c3ccccc3n2)c1	T1, G-quadruplex DNA (Homo sapiens)	thiazole orange displacement, competitor, FID	–	0.25 µM DNA, pH 7.4, 25 °C, KCl 100 mM, added: thiazole orange 0.50 µM	–	IC50	246 nM
O=C(O)c1occc1S(=O)(=O)NCc1ccc(-c2ccccc2)s1	malate dehydrogenase	enzyme activity, inhibitor	–	200 µM, pH 7.0, 1% DMSO, aggregation counter-screen	–	remaining activity	79%
CCCCC[N+](CCCCC)(CCCCC)CCCCC	T2, G-quadruplex DNA MYC22 promoter G14T/G23T (Homo sapiens)	NMR	–	–	–	binding	binds
O=C(O)C(O)C(O)C(=O)O.c1cnc2cc3c(cc2n1)[C@@H]1CNC[C@H]3C1	Voltage-dependent P/Q-type calcium channel subunit alpha-1A	ion current, antagonist	–	3 µM	–	inhibition	-5%
O=c1nc(SCc2cc(F)cc(C(F)(F)F)c2)nc(SCc2ccc3nc(Cl)ccc3c2)[nH]1	TOP2A	DNA cleavage	–	31.25 µM	–	mean linear DNA	0%
CCCCCCCC/C=C\CCCCCCCC(=O)NCCc1ccc(O)c(O)c1	Trpv1 (Mus musculus, UniProt Q704Y3, R580K)	ion current, agonist, whole-cell patch clamp	–	R580K	baseline: 3 mM 2-APB	maximal open probability	0.62 ± 0.1
O=S(=O)(NCc1coc2ccc(F)cc12)c1cc(Cl)cc(Cl)c1O	malate dehydrogenase	enzyme activity, inhibitor	–	200 µM, pH 7.0, 1% DMSO, aggregation counter-screen	–	remaining activity	74%
Nc1ncnc2c1ncn2[C@@H]1O[C@H](COP(=O)(O)CP(=O)(O)OP(=O)(O)O)[C@@H](O)[C@H]1O	P2X purinoceptor 1 (P2RX1, Homo sapiens, UniProt P51575, E122A)	saturation binding	HEK293	1 nM	–	specific binding	10 CCPM and 11.5 CCPM
c1coc(-c2n[nH]cc2-c2ccnc3ccccc23)c1	Serine/threonine-protein kinase HSL1 (HSL1, Candida albicans, UniProt Q5AG71)	kinase binding, MIB/MS competition	Candida albicans lysate	10 µM	baseline: DMSO, negative = stronger binding	log2 fold change	-0.03
COc1ccccc1N1CCN(Cc2cccnc2Oc2ccc(-c3c(C)c(=O)[nH]c(=O)n3C)c(C)c2)CC1	ADRA2C	binding, radioligand binding	–	added: [3H]rauwolscine	baseline: Ki alpha2B over Ki alpha2C	selectivity ratio	11
CC[C@@H]1[C@H](F)C(=O)N[C@@H]1COc1nccc2cc(C(N)=O)c(OC)cc12	STK38L (Homo sapiens, UniProt Q9Y2H1)	ATP-site probe binding, ActivX profiling	THP-1 cell lysate	0.04 mM, Lys1 site	–	inhibition	-2%

SMILES	target	assay	system	conditions	how to read	quantity	result
COc1ccc2c(c1)-c1c(ssc1=S)C(C)(C)N2C(=O)CSC#N	UCHL1	covalent, intact protein LC-MS	–	12.5 µM	–	labelling	10.6%
O=c1nc(SCc2cc(F)cc(C(F)(F)F)c2)nc(SCc2csc3ccc(Cl)cc23)[nH]1	TOP2A	decatenation	–	0.49 µM, replicate 2	–	decatenated DNA	0%
COc1ccc(CN2CCN(C(=O)CCl)CC2)cc1.Cl	UCHL1	covalent, intact protein LC-MS	–	12.5 µM	–	labelling	21.6%
[Cl][Fe]([Cl])[Cl]	Serine protease 1 (PRSS1, Bos taurus, UniProt P00760)	enzyme activity	–	concentration not given, pH 8.0, 25 °C, added: benzoyl-arginine ethyl ester	–	BAEE hydrolysis	no effect
CC(C)NCC(O)COc1cccc2ccccc12 (stereo not drawn)	Voltage-dependent P/Q-type calcium channel subunit alpha-1A	ion current, antagonist, automated patch clamp	–	–	–	IC30	5240 nM
C=CC(=O)N1CCC(COCC(=O)N2CCN(c3nc(-c4cnc(N)nc4C(F)F)nc(N4CCOC[C@@H]4C)n3)CC2)CC1	Tyrosine-protein kinase ABL1, phosphorylated (ABL1, Homo sapiens, UniProt P00519, H396P)	KINOMEscan	–	1 µM	–	remaining binding	91%
O=C1NCCN1CCN1CCC(c2cn(-c3ccc(F)cc3)c3ccc(Cl)cc23)CC1	Voltage-dependent P/Q-type calcium channel subunit alpha-1A	ion current, antagonist	HEK293	3 µM	–	inhibition	42%
CC(=NNc1nc(Cl)c(C#N)c(Cl)c1Cl)c1ccccc1	UCHL1	covalent, intact protein LC-MS	–	12.5 µM	–	labelling	3.23%
NCCOc1cc(C(=O)Nc2cc(OCCN)c3ccccc3n2)nc(C(=O)Nc2cc(OCCN)c3ccccc3n2)c1	T3, G-quadruplex DNA human telomere fragment (Homo sapiens)	laser tweezers	–	30 s, KCl 100 mM, single-site fit	–	Kd	490 nM
COc1cc(O)c2c(c1)oc(=O)c1c3cc(O)c(O)cc3oc21	MAL12 (Saccharomyces cerevisiae S288c, UniProt P53341)	circular dichroism	–	molar ratio 1:1	–	β-Turn content	20.1%
Cn1c(=O)c2[nH]cnc2n(C)c1=O	Voltage-dependent P/Q-type calcium channel subunit alpha-1A	ion current, antagonist	HEK293	3 µM	–	inhibition	-2%
CO[C@H]1O[C@H](COS(=O)(=O)O)[C@@H](O[C@@H]2O[C@@H](C(=O)O)[C@@H](O[C@H]3O[C@H](COS(=O)(=O)O)[C@@H](O[C@@H]4O[C@H](C(=O)O)[C@@H](O[C@H]5O[C@H](COS(=O)(=O)O)[C@@H](O)[C@H](O)[C@H]5NS(=O)(=O)O)[C@H](O)[C@H]4O)[C@H](OS(=O)(=O)O)[C@H]3NS(=O)(=O)O)[C@H](O)[C@H]2OS(=O)(=O)O)[C@H](O)[C@H]1NS(=O)(=O)O	Beta-2-glycoprotein 1, domain V (APOH, Homo sapiens, UniProt P02749, V266L)	isothermal titration calorimetry	–	298 K, added: 100 mM NaCl	–	association constant	68100 ± 9340 M⁻¹
CCCCC[C@H](O)/C=C/[C@H]1CCC(=O)[C@@H]1C/C=C\CCCC(=O)O	PTGER1 (Homo sapiens, UniProt P34995)	IP1 accumulation, agonist	AD293	–	baseline: wild type	span	99.9 ± 2.5%
COc1cc(Nc2ncc3c(n2)-c2ccc(Cl)cc2C(c2c(F)cccc2OC)=NC3)ccc1C(=O)O	MAPK3	kinase activity	–	1 µM	–	remaining activity	109%
Cc1cc(C)cc(-c2cc(NC(=O)CCl)n(-c3ccccc3)n2)c1	UCHL1	covalent, intact protein LC-MS	–	12.5 µM	–	labelling	10.2%
O=C(C1=C(O)C(=O)N(c2ccc(O)c(C(=O)O)c2)C1c1ccc2c(c1)COC2=O)c1ccccc1 (stereo not drawn)	ESR1/YWHAZ, with 14-3-3 zeta (Homo sapiens, UniProt P03372+P63104)	14-3-3ζ/ERα peptide binding, stabiliser, fluorescence polarization	–	–	–	EC1.2	63 µM
Nc1nc2c(ncn2[C@@H]2O[C@H](COP(=O)(O)O)[C@@H](O)[C@H]2O)c(=O)[nH]1	GUK1 (Homo sapiens, UniProt Q16774, S37A)	enzyme activity, NADH-coupled	–	15.62 µM	–	reaction rate	-2.23 s⁻¹ and 0.102 s⁻¹ and -0.896 s⁻¹
Cc1cc(-c2ccnc3[nH]cc(F)c23)cc(F)c1[C@@]1(O)[C@H](C)CN(C(=O)CN)C[C@@H]1C	LATS1 (Homo sapiens, UniProt O95835)	ATP/ADP probe binding, KiNativ	HEK293T lysate	1 µM, Lys1 peptide ALYATKTLR	–	probe labelling inhibition	80.8%
CC(C)NC(=O)C(C#N)=Cc1ccc2ccccc2c1	UCHL1	covalent, intact protein LC-MS	–	12.5 µM	–	labelling	8.47%
C=CC(=O)N1CCC(C(=O)NCC(=O)N2CCN(c3nc(-c4cnc(N)nc4C(F)F)nc(N4CCOCC4)n3)CC2)CC1	MET (Homo sapiens, UniProt P08581)	KINOMEscan	–	1 µM	–	remaining binding	75%
C=C1C(=O)O[C@@H]2C[C@@]3(C)CCCC(=C)[C@@H]3C[C@H]12	Vitamin D3 receptor (VDR, Homo sapiens, UniProt P11473)	reporter gene, Gal4 hybrid reporter	–	10 µM	baseline: vehicle	activation	1.45 fold
Cc1cc2nc3c(=O)[nH]c(=O)nc-3n(C[C@H](O)[C@H](O)[C@H](O)COP(=O)(O)OP(=O)(O)OC[C@H]3O[C@@H](n4cnc5c(N)ncnc54)[C@H](O)[C@@H]3O)c2cc1C	Acyl-coenzyme A oxidase acox-1.1 (acox-1.1, Caenorhabditis elegans, UniProt O62140)	UV spectroscopy	–	–	–	enzyme bound with compound	52% and 26% and 48.7% and 49% and 51% and 43.7% and 53%
Nc1ncnc2c1ncn2[C@@H]1O[C@H](COP(=O)(O)OP(=O)(O)OP(=O)(O)O)[C@@H](O)[C@H]1O	T4, ssDNA, aptamer	ITC	–	–	–	Kd	1860 nM
CC1(C)CC(NS(=O)(=O)c2cccc(Cl)c2O)c2ccc(F)cc2O1 (stereo not drawn)	malate dehydrogenase	enzyme activity, inhibitor	–	100 µM, pH 7.0, 1% DMSO, aggregation counter-screen	–	remaining activity	102%
C[C@@H](c1ccc(-n2cnc3c(N)ncnc32)cc1)N1CCc2nn(C)c(Cc3ccccc3)c2C1=O	MET (Homo sapiens, UniProt P08581, Y1235D)	KINOMEscan	–	0.1 µM	baseline: DMSO control	remaining binding	79%
Cc1cc(CN(C(=O)CCl)c2cn(C)nn2)ccc1Cl	UCHL1	covalent, intact protein LC-MS	–	12.5 µM	–	labelling	21.8%
CC1CC1(C(=O)O)C(=O)NCc1ccc(Sc2ccccc2)cc1 (stereo not drawn)	malate dehydrogenase	enzyme activity, inhibitor	–	200 µM, pH 7.0, 1% DMSO, aggregation counter-screen	–	remaining activity	97%

Repeated from above:
SMILES	target	assay	system	conditions	how to read	quantity	result
COc1ccc(NC(=O)C(C#N)=Cc2cccc(O)c2)cc1OC	UCHL1	covalent, intact protein LC-MS	–	12.5 µM	–	labelling	30.7%
CCN1CCC[C@H]1CNC(=O)c1c(O)c(Cl)cc(Cl)c1OC	G-protein coupled receptor family C group 6 member A (GPRC6A, Homo sapiens, UniProt Q5T6X5)	β-arrestin recruitment, TANGO luminescence, measured: GPRC6A	–	concentration not given	baseline: basal luminescence	log2 fold change	-0.2
CCCN1C[C@H](CSC)C[C@@H]2c3cccc4[nH]cc(c34)C[C@H]21	Voltage-dependent P/Q-type calcium channel subunit alpha-1A	ion current, antagonist, automated patch clamp	–	–	–	IC30	25000 nM
